Results collected from several papers.
Parts stem from different laboratories: compare values within a part only.
Sequence of UniProt P21802 (whole entry, looked up): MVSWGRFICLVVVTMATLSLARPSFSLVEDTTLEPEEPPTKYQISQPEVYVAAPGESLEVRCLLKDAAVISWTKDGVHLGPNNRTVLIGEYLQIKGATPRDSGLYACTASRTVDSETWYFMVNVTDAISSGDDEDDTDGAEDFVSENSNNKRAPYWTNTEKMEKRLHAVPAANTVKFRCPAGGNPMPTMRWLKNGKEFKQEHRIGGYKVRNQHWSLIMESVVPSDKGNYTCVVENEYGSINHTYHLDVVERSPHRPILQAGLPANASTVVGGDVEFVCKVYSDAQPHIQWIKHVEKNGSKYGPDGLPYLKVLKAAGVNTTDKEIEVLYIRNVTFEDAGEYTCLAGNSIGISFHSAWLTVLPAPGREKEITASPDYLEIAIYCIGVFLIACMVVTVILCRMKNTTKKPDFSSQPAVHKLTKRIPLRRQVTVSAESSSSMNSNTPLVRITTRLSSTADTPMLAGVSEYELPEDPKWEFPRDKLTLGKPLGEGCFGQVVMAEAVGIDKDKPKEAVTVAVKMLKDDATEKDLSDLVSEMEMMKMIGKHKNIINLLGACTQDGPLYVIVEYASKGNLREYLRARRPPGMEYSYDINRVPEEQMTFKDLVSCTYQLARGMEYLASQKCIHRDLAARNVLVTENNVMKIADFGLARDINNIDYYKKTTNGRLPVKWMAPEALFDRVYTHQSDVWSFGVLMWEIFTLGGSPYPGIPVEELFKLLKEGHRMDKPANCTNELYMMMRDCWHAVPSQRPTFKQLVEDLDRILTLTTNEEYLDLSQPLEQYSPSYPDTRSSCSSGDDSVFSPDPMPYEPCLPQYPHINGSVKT
Sequence of UniProt P80192 (whole entry, looked up): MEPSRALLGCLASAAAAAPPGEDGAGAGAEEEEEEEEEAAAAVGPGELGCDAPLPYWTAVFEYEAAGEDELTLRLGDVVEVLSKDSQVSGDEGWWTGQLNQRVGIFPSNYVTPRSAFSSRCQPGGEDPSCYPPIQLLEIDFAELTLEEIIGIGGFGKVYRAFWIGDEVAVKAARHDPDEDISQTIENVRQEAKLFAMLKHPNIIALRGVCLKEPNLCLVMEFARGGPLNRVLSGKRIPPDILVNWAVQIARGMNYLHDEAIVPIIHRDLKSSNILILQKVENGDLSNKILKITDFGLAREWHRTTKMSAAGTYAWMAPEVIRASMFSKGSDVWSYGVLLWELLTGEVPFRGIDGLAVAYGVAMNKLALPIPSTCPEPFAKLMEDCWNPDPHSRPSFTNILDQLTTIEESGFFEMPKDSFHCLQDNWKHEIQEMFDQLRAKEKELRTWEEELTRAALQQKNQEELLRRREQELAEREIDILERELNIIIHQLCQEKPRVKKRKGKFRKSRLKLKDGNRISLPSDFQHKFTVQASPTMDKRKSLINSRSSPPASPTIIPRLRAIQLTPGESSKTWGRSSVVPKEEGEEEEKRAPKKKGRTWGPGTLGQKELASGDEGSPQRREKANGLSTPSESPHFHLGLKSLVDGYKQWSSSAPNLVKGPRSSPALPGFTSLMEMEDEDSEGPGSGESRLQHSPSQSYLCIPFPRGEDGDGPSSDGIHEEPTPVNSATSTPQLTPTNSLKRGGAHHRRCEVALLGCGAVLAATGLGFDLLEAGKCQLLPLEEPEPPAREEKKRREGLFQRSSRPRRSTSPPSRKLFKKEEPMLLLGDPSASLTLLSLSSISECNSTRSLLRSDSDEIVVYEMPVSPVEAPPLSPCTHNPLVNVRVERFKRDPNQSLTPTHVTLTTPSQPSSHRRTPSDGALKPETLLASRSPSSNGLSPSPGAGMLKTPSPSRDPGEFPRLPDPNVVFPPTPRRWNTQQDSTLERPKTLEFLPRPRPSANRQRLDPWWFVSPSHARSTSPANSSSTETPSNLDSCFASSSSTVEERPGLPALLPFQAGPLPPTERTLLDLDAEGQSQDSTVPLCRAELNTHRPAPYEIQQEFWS
Sequence of UniProt Q04771 (whole entry, looked up): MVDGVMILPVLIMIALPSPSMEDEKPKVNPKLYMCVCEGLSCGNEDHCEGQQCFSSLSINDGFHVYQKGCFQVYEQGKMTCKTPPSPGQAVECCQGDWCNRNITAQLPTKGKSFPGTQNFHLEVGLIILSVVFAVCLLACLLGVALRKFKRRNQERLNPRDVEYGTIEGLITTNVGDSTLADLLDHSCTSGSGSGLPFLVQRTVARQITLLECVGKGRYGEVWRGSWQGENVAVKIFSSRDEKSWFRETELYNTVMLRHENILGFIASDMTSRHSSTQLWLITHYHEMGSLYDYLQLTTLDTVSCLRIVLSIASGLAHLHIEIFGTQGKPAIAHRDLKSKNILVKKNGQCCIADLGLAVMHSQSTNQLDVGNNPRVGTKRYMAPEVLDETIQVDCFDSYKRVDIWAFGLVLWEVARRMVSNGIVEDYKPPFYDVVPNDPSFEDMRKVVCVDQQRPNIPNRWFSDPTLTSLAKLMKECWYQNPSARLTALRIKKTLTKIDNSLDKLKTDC
Sequence of UniProt P14616 (whole entry, looked up): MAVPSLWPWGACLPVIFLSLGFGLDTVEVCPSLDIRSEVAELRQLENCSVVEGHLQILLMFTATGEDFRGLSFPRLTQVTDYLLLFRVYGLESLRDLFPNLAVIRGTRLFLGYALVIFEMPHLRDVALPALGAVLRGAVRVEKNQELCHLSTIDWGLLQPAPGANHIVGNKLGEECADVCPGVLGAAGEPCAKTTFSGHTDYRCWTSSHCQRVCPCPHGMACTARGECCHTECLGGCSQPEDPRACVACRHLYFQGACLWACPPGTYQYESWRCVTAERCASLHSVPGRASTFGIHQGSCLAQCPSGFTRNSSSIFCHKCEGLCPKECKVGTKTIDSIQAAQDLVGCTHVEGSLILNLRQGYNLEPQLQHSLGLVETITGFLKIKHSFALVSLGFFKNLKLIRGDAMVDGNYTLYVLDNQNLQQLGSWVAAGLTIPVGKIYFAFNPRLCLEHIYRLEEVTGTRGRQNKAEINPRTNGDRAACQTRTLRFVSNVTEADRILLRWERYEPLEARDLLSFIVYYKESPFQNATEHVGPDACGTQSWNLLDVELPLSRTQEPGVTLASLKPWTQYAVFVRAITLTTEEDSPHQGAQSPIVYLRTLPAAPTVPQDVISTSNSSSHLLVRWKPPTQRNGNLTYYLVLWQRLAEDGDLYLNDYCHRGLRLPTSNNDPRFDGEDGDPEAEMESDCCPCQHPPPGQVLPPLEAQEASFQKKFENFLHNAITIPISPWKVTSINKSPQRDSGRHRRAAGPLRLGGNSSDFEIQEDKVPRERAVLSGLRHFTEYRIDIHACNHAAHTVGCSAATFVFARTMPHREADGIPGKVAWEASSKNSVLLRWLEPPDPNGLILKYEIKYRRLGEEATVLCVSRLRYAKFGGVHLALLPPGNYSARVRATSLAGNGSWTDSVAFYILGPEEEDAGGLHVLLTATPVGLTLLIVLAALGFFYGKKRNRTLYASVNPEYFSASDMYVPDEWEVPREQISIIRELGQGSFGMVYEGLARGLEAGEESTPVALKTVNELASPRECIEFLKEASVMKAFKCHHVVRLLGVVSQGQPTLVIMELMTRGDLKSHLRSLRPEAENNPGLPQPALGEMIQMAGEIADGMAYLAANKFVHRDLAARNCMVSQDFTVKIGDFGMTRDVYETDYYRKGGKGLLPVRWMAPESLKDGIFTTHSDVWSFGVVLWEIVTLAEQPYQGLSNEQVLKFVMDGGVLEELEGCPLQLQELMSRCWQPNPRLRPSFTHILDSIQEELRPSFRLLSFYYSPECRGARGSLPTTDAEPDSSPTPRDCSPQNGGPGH
Sequence of UniProt O94806 (whole entry, looked up): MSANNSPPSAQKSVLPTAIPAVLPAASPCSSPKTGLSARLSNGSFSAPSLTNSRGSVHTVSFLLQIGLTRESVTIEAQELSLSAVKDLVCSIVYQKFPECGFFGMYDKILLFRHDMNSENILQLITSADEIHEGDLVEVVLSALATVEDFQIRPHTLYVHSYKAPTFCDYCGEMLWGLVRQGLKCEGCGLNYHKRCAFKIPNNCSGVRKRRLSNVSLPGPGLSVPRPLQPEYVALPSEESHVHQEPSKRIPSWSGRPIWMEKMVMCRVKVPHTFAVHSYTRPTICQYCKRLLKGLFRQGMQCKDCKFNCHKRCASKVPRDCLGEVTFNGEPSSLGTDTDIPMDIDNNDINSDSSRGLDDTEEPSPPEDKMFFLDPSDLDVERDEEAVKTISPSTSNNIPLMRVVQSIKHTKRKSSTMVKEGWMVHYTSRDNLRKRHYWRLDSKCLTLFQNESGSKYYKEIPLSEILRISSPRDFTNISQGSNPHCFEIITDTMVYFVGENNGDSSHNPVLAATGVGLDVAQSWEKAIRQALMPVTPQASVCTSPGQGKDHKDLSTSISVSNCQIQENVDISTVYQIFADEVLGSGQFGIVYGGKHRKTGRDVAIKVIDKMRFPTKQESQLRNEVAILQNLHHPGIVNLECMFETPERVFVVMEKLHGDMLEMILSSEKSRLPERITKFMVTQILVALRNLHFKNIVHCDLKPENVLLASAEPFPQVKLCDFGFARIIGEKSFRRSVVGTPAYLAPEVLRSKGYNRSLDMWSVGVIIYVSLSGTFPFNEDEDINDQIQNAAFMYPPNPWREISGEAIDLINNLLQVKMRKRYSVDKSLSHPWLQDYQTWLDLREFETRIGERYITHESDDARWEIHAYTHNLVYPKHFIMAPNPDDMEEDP
Sequence of UniProt P15735 (whole entry, looked up): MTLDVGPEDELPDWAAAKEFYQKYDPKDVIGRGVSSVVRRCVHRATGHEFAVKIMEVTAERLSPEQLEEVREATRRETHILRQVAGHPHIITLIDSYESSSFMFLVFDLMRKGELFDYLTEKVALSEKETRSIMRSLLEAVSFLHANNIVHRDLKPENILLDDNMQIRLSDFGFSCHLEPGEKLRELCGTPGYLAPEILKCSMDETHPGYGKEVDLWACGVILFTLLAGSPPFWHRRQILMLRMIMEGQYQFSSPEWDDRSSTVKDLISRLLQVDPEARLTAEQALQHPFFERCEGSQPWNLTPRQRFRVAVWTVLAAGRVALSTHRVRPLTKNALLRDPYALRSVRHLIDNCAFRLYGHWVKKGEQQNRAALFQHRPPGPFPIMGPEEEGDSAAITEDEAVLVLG

Study 1 — effect on: acetyl-histone H4 peptide binding; method: AlphaScreen displacement; concentration: 50 µM
Target: Bromodomain-containing protein 4, BD1 (BRD4, Homo sapiens, UniProt O60885)
SMILES | inhibition [%]
CNC(=O)c1c(F)cccc1Nc1nc(Nc2cc3c(cc2OC)CCN3C(=O)CN(C)C)nc2[nH]ccc12 | 38.1
CN(C)c1cccc(-c2nc(-c3ccncc3)cnc2N)c1 | 38.4
N#CC(=Cc1ccncc1)c1nc2cc(C(F)(F)F)ccc2s1 | 48.3
N#CC(=Cc1ccncc1)c1nc2ccccc2o1 | 21.9
O=C(Nc1ccncc1)Nc1c(Cl)cc(Cl)cc1Cl | 9.15
CCn1c(-c2nonc2N)nc2cnc(Oc3cccc(NC(=O)c4ccc(OCCN5CCOCC5)cc4)c3)cc21 | 25.3
O=C1Nc2ccc(Br)cc2/C1=C/c1cc2c([nH]1)CCCC2 | 49.4
COc1ccc(Cl)cc1C(=O)Nc1ccc2[nH]ncc2c1 | 2.25
Cc1ccc(C=C(C#N)c2nc3ccccc3s2)o1 | 31.6
CC(C)n1cnc2c(Nc3ccc(-c4ccccn4)cc3)nc(N[C@H](C)CO)nc21 | 56
COc1ccc(-c2nnc3ccc(SCC(N)=O)nn23)cc1OC | -3.55
CC=CCn1cnc2c1c(=O)n(C)c(=O)n2C | -8.35
c1ccc(-c2n[nH]c3c2oc2ccccc23)cc1 | 17.9
CCc1cc(Nc2nccc(-c3c(-c4ccc(OC)c(C(=O)Nc5c(F)cccc5F)c4)nc4ccccn34)n2)c(OC)cc1N1CCC(N2CCN(S(C)(=O)=O)CC2)CC1 | 33.2
O=C1C(Cl)=C(N2C(=O)CCC2=O)C(=O)c2ccccc21 | 10.1
Cc1nc2ccccn2c1-c1csc(Nc2ccc(S(N)(=O)=O)cc2)n1 | 12.8
O=C1c2ccccc2-c2nc3nnnn3nc21 | 12.6
COC(=O)c1ccccc1NC(=O)CSc1nnc(-c2ccccc2)n1-n1cccc1 | 8.55
CC(Nc1nc(-c2cncnc2)cnc1N)c1ccccc1 (centres unmarked) | 16.1
CCC(CO)Nc1ccc2ncc(-c3ccc(F)c(Cl)c3)n2n1 (centres unmarked) | 3.1
COc1nccc(-c2c(-c3ccc(F)cc3)ncn2C2CCC(O)CC2)n1 (centres unmarked) | 72.8

Study 2
Structure (SMILES): CC(C)n1cnc(-c2ccc(F)cc2)c1-c1ncc(C(=O)Nc2ccc(N3CCN(C)CC3)cc2)[nH]1
assay | test system | setting | patients with adverse event
item: pulmonary embolism | patients with idiopathic pulmonary fibrosis | dose not given, trial, all compound arms | 0%
item: periorbital oedema, grade 2 | idiopathic pulmonary fibrosis patients | oral, 30 mg once daily | 0%
Phase 2a trial, item: hypercholesterolaemia | human, idiopathic pulmonary fibrosis | 60 mg once daily, grade 2 | 0%
item: prostatic calcification, maximum grade 4 | idiopathic pulmonary fibrosis patients | oral, 60 mg once daily | 0%
Phase 2a trial, item: blood creatine phosphokinase increased | human, idiopathic pulmonary fibrosis | all compound arms total, grade 5 | 0%
Phase 2a trial, item: blood pressure increased | human, idiopathic pulmonary fibrosis | 60 mg once daily, grade 1 | 0%
Phase 2a trial, item: blood urea increased | human, idiopathic pulmonary fibrosis | all compound arms total, grade 2 | 0%
Phase 2a trial, item: hepatobiliary disorders | human, idiopathic pulmonary fibrosis | all compound arms total, grade 5 | 0%
Phase 2a trial, item: blood fibrinogen increased | human, idiopathic pulmonary fibrosis | all compound arms total, grade 4 | 0%
Phase 2a trial, item: hyperuricaemia | human, idiopathic pulmonary fibrosis | all compound arms total, grade 3 | 0%
Phase 2a trial, item: blood pressure increased | human, idiopathic pulmonary fibrosis | all compound arms total, grade 1 | 0%
Phase 2a trial, item: blood fibrinogen increased | human, idiopathic pulmonary fibrosis | 30 mg once daily, grade 3 | 0%
Phase 2a trial, item: blood glucose increased | human, idiopathic pulmonary fibrosis | 60 mg once daily, grade 3 | 0%
Phase 2a trial, item: blood creatine phosphokinase increased | human, idiopathic pulmonary fibrosis | all compound arms total, grade 4 | 0%
Phase 2a trial, item: blood creatinine increased | human, idiopathic pulmonary fibrosis | all compound arms total, grade 3 | 0%
Phase 2a trial, item: blood lactate dehydrogenase increased | human, idiopathic pulmonary fibrosis | all compound arms total, grade 4 | 0%
Phase 2a trial, item: hypokalaemia | human, idiopathic pulmonary fibrosis | 60 mg once daily, grade 3 | 0%
Phase 2a trial, item: haemoptysis | human, idiopathic pulmonary fibrosis | all compound arms, grade 2 | 0%
Phase 2a trial, item: blood creatinine increased | human, idiopathic pulmonary fibrosis | all compound arms total, grade 4 | 0%
Phase 2a trial, item: hypoalbuminaemia | human, idiopathic pulmonary fibrosis | 30 mg once daily, grade 1 | 0%

Study 3 — effect on: enzyme activity; action: inhibitor; concentration: 0.5 µM; reference: control
SMILES: O=Nc1c(-c2c(O)[nH]c3cc(Br)ccc23)[nH]c2ccccc12
target | remaining activity
Fibroblast growth factor receptor 2 (FGFR2, Homo sapiens, UniProt P21802) | 59.2%
Serine/threonine-protein kinase VRK1 (VRK1, Homo sapiens, UniProt Q99986) | 98%
Receptor-interacting serine/threonine-protein kinase 2 (RIPK2, Homo sapiens, UniProt O43353) | 75.2%
Phosphorylase b kinase gamma catalytic chain, liver/testis isoform (PHKG2, Homo sapiens, UniProt P15735) | 92.5%
Mitogen-activated protein kinase kinase kinase 9 (MAP3K9, Homo sapiens, UniProt P80192) | 9.21%
Tyrosine-protein kinase HCK (HCK, Homo sapiens, UniProt P08631) | 13.3%
Serine/threonine-protein kinase PLK1 (PLK1, Homo sapiens, UniProt P53350) | 101%
Serine/threonine-protein kinase ULK1 (ULK1, Homo sapiens, UniProt O75385) | 95.3%
Serine/threonine-protein kinase TAO1 (TAOK1, Homo sapiens, UniProt Q7L7X3) | 98.5%
RAF proto-oncogene serine/threonine-protein kinase (RAF1, Homo sapiens, UniProt P04049) | 103%
Insulin receptor-related protein (INSRR, Homo sapiens, UniProt P14616) | 81%
Serine/threonine-protein kinase D3 (PRKD3, Homo sapiens, UniProt O94806) | 87.8%
Mitogen-activated protein kinase kinase kinase kinase 5 (MAP4K5, Homo sapiens, UniProt Q9Y4K4) | 36.5%
Activin receptor type-1 (ACVR1, Homo sapiens, UniProt Q04771) | 114%
BDNF/NT-3 growth factors receptor (NTRK2, Homo sapiens, UniProt Q16620) | 10.3%
Platelet-derived growth factor receptor beta (PDGFRB, Homo sapiens, UniProt P09619) | 35.2%
Serine/threonine-protein kinase Sgk3 (SGK3, Homo sapiens, UniProt Q96BR1) | 97.2%

Other studies, line by line
Compound | target | assay | setting | endpoint | result
C[C@@H](c1cccc(C#N)c1)n1cc(Cl)cc(C(N)=O)c1=N | Translocator protein (Tspo, Rattus norvegicus, UniProt P16257) | binding, radioligand binding | 10 µM | inhibition | 1.07%

A few entries again (study 1):
SMILES | inhibition [%]
COc1nccc(-c2c(-c3ccc(F)cc3)ncn2C2CCC(O)CC2)n1 (centres unmarked) | 72.8
c1ccc(-c2n[nH]c3c2oc2ccccc23)cc1 | 17.9
O=C(Nc1ccncc1)Nc1c(Cl)cc(Cl)cc1Cl | 9.15
CNC(=O)c1c(F)cccc1Nc1nc(Nc2cc3c(cc2OC)CCN3C(=O)CN(C)C)nc2[nH]ccc12 | 38.1
CC=CCn1cnc2c1c(=O)n(C)c(=O)n2C | -8.35
COC(=O)c1ccccc1NC(=O)CSc1nnc(-c2ccccc2)n1-n1cccc1 | 8.55
O=C1c2ccccc2-c2nc3nnnn3nc21 | 12.6
CN(C)c1cccc(-c2nc(-c3ccncc3)cnc2N)c1 | 38.4
CCn1c(-c2nonc2N)nc2cnc(Oc3cccc(NC(=O)c4ccc(OCCN5CCOCC5)cc4)c3)cc21 | 25.3
